Earlier results that unrelated publications cite.
Protocols differ between the studies behind these lines.
Sequence of UniProt Q15569 (whole entry, looked up): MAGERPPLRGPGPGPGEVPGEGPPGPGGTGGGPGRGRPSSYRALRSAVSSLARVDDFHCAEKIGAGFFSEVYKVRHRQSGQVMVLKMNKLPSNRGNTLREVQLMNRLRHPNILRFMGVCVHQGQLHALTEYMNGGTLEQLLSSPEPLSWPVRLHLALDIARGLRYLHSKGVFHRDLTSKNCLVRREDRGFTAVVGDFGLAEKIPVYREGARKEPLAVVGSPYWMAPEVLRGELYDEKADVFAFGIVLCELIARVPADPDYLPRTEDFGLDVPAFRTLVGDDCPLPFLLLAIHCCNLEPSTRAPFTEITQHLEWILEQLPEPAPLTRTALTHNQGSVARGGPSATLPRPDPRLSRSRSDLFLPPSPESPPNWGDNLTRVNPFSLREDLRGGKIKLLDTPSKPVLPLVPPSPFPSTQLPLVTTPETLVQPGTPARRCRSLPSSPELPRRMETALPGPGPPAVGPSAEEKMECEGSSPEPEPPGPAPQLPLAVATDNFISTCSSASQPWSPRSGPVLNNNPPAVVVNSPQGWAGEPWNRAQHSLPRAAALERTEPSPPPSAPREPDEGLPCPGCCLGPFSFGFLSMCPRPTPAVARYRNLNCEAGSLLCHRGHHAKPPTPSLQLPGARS

| SMILES | tested on | assay | test system | conditions | how to read | endpoint | result |
| --- | --- | --- | --- | --- | --- | --- | --- |
| Cc1cc(C)c(CNC(=O)c2cc(Cl)c3c(c2C)O[C@@](C)([C@H]2CC[C@H](N(C)C)CC2)O3)c(=O)[nH]1 |  |  | human, plasma |  |  | fraction unbound | 0.0548 |
| CCC(C)n1ncn(-c2ccc(N3CCN(c4ccc(OCC5COC(Cn6cncn6)(c6ccc(Cl)cc6Cl)O5)cc4)CC3)cc2)c1=O (stereo not shown) |  |  | human | capsule fed |  | fraction absorbed | 0.59 |
| Nc1cc(C(F)(F)F)c(-c2nc(N3CCOCC3)nc(N3CCOCC3)n2)cn1 | TESK1 (Homo sapiens, UniProt Q15569) | enzyme activity |  | 10 µM | relative to: untreated | remaining activity | 83% |
| CC(C)(C)c1cc(C(C)(C)C)c(NC(=O)c2c[nH]c3ccccc3c2=O)cc1O |  |  | human |  |  | fraction unbound in enterocytes | 0.279 |
| CCOC(=O)[C@H](CCc1ccccc1)N[C@@H](C)C(=O)N1CCC[C@H]1C(=O)O |  |  | human |  |  | fraction absorbed | 40% |
| CC(C)(CO)c1cc2cc(NC(=O)C3(c4ccc5c(c4)OC(F)(F)O5)CC3)c(F)cc2n1C[C@@H](O)CO |  |  | human, plasma |  |  | fraction unbound | 0.009 |
| C=CC[C@@H]1/C=C(\C)C[C@H](C)C[C@H](OC)[C@H]2O[C@@](O)(C(=O)C(=O)N3CCCC[C@H]3C(=O)O[C@H](/C(C)=C/[C@@H]3CC[C@@H](O)[C@H](OC)C3)[C@H](C)[C@@H](O)CC1=O)[C@H](C)C[C@@H]2OC |  | refers to: CYP3A4 | human |  |  | fraction metabolized | 0.33 |
| CC(C)NCC(O)COc1ccc(CC(N)=O)cc1 (stereo not shown) |  |  | human |  |  | fraction absorbed | 56% |
| C[C@@H](Oc1ccc(S(C)(=O)=O)cc1C(=O)N1C[C@@H]2C[C@]2(c2cc(C(F)(F)F)on2)C1)C(F)(F)F |  |  | human, liver |  |  | fraction metabolised by CYP3A4 | ≥ 90% |
| CNS(=O)(=O)Cc1ccc2[nH]cc(CCN(C)C)c2c1 |  |  | human |  |  | fraction absorbed | 57% |
| C[C@@H](O)[C@H]1C(=O)N2C(C(=O)O)=C(SCCN=CN)C[C@H]12 |  |  | human patients |  |  | fraction excreted in urine | 43% |
| Cc1nn(C)cc1S(=O)(=O)NC(=O)c1ccc(-n2ccc(OCC(C)(C)C(F)(F)F)n2)nc1N1C[C@@H](C)CC1(C)C |  |  | human |  |  | fraction absorbed | 0.82 |
| CN(C)C(=N)N=C(N)N |  |  | human |  |  | fraction absorbed | 86% |

For quick reference, copied from above:
| SMILES | tested on | assay | test system | conditions | how to read | endpoint | result |
| --- | --- | --- | --- | --- | --- | --- | --- |
| CN(C)C(=N)N=C(N)N |  |  | human |  |  | fraction absorbed | 86% |
